Published values of several laboratories.
Compare with care: the assays were run in different laboratories.

SMILES	host	medium	route	dose	setting	bioavailability [%]
COC1C=COC2(C)Oc3c(C)c(O)c4c(c3C2=O)C2=NC3(CCN(CC(C)C)CC3)NC2=C(NC(=O)C(C)=CC=CC(C)C(O)C(C)C(O)C(C)C(OC(=O)c2cccnc2)C1C)C4=O (stereo not shown)	female CD-1 mouse	plasma	oral	10 mg/kg	–	79
O=C(Nc1ccc(C(F)F)cc1)[C@H](CC1CCCCC1)Nc1nn2c(=O)ccnc2s1	female nude mouse	plasma	oral	10 mg/kg	–	20
Nc1ccc(-c2cc(Cl)c(Cl)c3[nH]c4c(c23)CN(C(=O)CO)CC4)cn1	C57BL/6 mouse	blood	oral	20 mg/kg	–	13.4
Cc1ncsc1-c1ccc(CNC(=O)[C@@H]2C[C@@H](O)CN2C(=O)[C@@H](NC(=O)COCC(C)(COCCOCCOCCNC(=O)C[C@@H]2N=C(c3ccc(Cl)cc3)c3c(sc(C)c3C)-n3c(C)nnc32)COCCOCCOCCNC(=O)C[C@@H]2N=C(c3ccc(Cl)cc3)c3c(sc(C)c3C)-n3c(C)nnc32)C(C)(C)C)cc1	male C57BL/6 mouse	plasma	subcutaneous	5 mg/kg	single dose	88.4
C[C@@H](Nc1c(-c2c(F)cc(C#N)cc2F)c(Cl)nc2ncnn12)C(C)(C)C	male CD-1 mouse	plasma	oral	20 mg/kg	–	76
C[C@@H](Nc1nc2c(cnn2C(C)(C)C)c(=O)n1Cc1cccc(F)c1)c1ccc(Cl)cc1	C57BL/6 mouse	plasma	oral	5 mg/kg	–	64.6
CCC1(CC)CC(=O)N(C2CCOc3ccc(C(=O)NC4CC(C)(C)Oc5ccccc54)cc32)C(=N)N1 (stereo not shown)	male C57BL/6 mouse	plasma	oral	–	–	38
Cn1ccc(-c2cc(Cl)c(Cl)c3[nH]c4c(c23)CN(C(=O)CO)CC4)n1	C57BL/6 mouse	blood	oral	20 mg/kg	–	325
Fc1cncc(-c2ccc3[nH]c4ncnc(N[C@H]5CC[C@H](N6CCOCC6)CC5)c4c3c2)c1	CD-1 mouse	plasma	oral	10 mg/kg	–	24.2
COC1C(c2ccc(Cl)c(Cc3ccc(OC4CCOC4)cc3)c2)OC(CO)C(O)C1O (stereo not shown)	CD-1 mouse	plasma	oral	10 mg/kg	–	91.5
COC1C=COC2(C)Oc3c(C)c(O)c4c(c3C2=O)C2=NC3(CCN(CC(C)C)CC3)NC2=C(NC(=O)C(C)=CC=CC(C)C(O)C(C)C(O)C(C)C(OC(=O)Nc2cscn2)C1C)C4=O (stereo not shown)	female CD-1 mouse	plasma	oral	10 mg/kg	–	53
Cn1c2cc([S+](C)[O-])sc2c2cnn(Cc3cccc(N)c3)c(=O)c21 (stereo not shown)	male BALB/c mouse	plasma	oral	10 mg/kg	single dose	> 100
Cc1cc(C(=O)N[C@@H](CC(=O)NC(C)(C)C)C(=O)NCCNC(=O)c2cccc(-c3cc[nH]n3)c2)no1	mouse	plasma	oral	–	–	0
COC1C=COC2(C)Oc3c(C)c(O)c4c(c3C2=O)C2=NC3(CCN(CC(C)C)CC3)NC2=C(NC(=O)C(C)=CC=CC(C)C(O)C(C)C(O)C(C)C(OC(=O)c2cncnc2)C1C)C4=O (stereo not shown)	female CD-1 mouse	plasma	oral	10 mg/kg	–	80
O=S(=O)(N[C@H]1CCO[C@@H](C2c3ccccc3CCc3ccccc32)C1)c1ccc(OC(F)(F)F)cc1	mouse	plasma	oral	30 mg/kg	–	40
CCn1cc(-c2cc(Cn3ccnc3)cc3c2CCN([C@H](c2cc(OC)ccn2)C2CC2)C3=O)c(C(F)(F)F)n1	male CD-1 mouse	plasma	oral	50 mg/kg	–	47

Some of these lines once more:
SMILES	host	medium	route	dose	setting	bioavailability [%]
O=C(Nc1ccc(C(F)F)cc1)[C@H](CC1CCCCC1)Nc1nn2c(=O)ccnc2s1	female nude mouse	plasma	oral	10 mg/kg	–	20
Cn1c2cc([S+](C)[O-])sc2c2cnn(Cc3cccc(N)c3)c(=O)c21 (stereo not shown)	male BALB/c mouse	plasma	oral	10 mg/kg	single dose	> 100
